Measured values from different studies.
Each numbered part is a random draw from the data of one study; scales do not carry over between parts. Values joined by “and” are separate records of one study, mostly repeats; a detail may differ.
Sequence of UniProt Q96GD4 (whole entry, looked up): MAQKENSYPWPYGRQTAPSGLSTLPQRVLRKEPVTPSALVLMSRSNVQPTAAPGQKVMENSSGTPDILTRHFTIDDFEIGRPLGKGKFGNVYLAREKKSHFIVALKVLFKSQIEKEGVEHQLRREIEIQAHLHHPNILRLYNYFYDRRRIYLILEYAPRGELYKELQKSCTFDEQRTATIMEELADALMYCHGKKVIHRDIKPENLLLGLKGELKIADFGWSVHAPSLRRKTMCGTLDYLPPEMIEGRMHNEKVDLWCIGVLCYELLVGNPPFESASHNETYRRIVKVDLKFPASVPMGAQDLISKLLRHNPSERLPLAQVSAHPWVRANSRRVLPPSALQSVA
Sequence of UniProt Q8WXR4 (whole entry, looked up): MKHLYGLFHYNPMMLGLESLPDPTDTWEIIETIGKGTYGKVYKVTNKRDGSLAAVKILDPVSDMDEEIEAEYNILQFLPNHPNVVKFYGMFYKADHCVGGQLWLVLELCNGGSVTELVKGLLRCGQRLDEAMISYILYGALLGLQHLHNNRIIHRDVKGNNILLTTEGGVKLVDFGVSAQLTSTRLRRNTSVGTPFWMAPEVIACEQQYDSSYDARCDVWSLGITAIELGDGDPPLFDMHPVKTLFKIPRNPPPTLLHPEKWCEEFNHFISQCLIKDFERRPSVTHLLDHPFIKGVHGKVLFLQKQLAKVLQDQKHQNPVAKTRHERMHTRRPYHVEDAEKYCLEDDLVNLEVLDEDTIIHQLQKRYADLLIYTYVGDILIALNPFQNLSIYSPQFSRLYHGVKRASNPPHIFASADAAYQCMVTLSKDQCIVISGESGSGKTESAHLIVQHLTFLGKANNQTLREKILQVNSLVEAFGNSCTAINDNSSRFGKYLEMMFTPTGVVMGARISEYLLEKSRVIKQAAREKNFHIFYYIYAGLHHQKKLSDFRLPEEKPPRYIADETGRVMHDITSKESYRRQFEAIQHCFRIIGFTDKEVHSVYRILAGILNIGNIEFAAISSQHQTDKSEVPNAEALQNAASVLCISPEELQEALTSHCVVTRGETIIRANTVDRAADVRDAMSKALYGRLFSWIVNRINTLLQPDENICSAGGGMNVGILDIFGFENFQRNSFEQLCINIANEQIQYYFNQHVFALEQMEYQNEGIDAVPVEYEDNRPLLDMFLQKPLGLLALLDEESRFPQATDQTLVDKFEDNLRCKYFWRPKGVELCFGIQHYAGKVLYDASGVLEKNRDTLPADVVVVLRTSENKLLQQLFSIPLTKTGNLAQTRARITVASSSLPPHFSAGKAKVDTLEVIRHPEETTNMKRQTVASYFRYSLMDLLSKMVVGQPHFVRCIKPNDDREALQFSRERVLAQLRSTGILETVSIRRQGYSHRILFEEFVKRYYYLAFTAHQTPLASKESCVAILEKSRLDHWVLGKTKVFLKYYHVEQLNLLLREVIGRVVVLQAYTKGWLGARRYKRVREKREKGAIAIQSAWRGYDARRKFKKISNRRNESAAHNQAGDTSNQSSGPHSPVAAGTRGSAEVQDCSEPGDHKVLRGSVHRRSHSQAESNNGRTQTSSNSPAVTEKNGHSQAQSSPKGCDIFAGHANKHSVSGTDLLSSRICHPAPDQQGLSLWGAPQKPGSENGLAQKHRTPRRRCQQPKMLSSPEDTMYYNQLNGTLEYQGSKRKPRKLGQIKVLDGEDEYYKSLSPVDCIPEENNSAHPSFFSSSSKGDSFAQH
Sequence of UniProt O95819 (whole entry, looked up): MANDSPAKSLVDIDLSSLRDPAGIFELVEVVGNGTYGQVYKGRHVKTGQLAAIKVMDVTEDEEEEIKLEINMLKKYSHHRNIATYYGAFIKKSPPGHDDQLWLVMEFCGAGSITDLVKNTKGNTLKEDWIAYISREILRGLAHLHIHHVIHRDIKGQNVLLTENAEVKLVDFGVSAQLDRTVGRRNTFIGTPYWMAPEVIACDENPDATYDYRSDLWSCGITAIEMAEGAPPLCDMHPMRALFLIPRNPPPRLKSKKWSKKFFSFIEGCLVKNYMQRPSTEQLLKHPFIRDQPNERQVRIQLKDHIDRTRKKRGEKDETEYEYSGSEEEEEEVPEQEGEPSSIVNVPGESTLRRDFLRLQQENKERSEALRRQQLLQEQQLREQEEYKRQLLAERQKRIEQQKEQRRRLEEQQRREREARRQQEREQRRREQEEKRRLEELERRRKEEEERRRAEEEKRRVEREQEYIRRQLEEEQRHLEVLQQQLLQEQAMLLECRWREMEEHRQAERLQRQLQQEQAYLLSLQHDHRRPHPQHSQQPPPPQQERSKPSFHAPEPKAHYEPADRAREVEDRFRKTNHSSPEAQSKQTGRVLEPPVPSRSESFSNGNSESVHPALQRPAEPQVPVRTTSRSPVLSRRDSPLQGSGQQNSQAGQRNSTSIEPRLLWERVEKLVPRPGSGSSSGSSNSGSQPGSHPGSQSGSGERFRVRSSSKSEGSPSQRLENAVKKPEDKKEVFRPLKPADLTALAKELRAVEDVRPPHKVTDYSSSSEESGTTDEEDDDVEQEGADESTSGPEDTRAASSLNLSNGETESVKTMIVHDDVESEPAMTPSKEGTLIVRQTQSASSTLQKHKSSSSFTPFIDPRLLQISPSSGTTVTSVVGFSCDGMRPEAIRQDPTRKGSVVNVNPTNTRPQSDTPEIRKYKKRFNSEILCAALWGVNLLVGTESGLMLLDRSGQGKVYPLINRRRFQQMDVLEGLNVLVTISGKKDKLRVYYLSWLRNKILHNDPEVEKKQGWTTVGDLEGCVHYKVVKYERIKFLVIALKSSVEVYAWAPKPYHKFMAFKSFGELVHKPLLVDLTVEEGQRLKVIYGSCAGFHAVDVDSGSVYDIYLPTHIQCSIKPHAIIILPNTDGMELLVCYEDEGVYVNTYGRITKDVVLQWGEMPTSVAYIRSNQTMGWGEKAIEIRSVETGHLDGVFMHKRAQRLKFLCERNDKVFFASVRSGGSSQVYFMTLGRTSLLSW
Sequence of UniProt Q8WTQ7 (whole entry, looked up): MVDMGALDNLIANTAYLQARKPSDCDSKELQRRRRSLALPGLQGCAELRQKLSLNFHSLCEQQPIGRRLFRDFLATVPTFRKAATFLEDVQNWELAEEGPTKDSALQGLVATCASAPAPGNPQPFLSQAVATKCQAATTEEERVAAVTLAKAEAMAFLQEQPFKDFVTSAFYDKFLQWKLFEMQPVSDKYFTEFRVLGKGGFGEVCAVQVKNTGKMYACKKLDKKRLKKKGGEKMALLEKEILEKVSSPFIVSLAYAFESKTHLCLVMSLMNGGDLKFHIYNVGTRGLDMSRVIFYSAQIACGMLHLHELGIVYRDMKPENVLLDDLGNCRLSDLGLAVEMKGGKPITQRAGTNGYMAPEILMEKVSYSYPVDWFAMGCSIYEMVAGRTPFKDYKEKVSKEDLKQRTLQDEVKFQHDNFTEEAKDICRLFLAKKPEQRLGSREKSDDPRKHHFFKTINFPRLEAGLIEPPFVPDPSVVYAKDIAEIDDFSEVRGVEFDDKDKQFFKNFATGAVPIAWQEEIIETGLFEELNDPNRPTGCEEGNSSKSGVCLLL
Sequence of UniProt Q9BXA7 (whole entry, looked up): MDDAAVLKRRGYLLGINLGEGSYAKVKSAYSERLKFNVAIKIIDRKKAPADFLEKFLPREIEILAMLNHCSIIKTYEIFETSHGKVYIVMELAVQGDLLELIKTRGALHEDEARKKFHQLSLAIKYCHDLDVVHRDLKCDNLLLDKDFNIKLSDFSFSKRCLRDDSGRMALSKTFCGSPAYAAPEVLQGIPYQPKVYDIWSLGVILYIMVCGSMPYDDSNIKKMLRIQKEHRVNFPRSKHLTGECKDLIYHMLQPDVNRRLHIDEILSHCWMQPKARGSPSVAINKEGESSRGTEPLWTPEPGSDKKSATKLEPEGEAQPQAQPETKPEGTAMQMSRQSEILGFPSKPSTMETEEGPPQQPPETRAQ
Sequence of UniProt Q9BVS4 (whole entry, looked up): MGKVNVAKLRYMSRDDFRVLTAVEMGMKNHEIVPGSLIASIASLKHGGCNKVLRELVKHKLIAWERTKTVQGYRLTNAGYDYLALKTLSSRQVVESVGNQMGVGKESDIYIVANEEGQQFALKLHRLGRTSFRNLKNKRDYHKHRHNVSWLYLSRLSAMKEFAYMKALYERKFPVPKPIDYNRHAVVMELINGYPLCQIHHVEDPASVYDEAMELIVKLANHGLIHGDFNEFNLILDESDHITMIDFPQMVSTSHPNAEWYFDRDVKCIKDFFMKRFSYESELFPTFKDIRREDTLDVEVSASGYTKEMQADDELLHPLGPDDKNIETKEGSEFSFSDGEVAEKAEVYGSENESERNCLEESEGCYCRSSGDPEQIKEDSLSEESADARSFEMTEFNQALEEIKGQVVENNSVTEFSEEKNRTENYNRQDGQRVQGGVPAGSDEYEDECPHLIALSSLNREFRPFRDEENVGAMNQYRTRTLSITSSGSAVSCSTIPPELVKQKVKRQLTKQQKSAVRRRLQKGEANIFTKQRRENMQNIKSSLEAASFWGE

Block 1
Read-out: AlphaScreen signal
Technique: AlphaScreen counter screen
Matrix: His6 peptide without bromodomain
Concentration: 50 µM
Notes: assay interference check
SMILES | inhibition
Cn1c(Nc2ccc(C(F)(F)F)cc2)nc2cc(Oc3ccnc(-c4ncc(C(F)(F)F)[nH]4)c3)ccc21 | 32.2%
CC(C)[C@H](CO)Nc1nc(Nc2cccc(Cl)c2)c2ncn(C(C)C)c2n1 | 49.1%
Nc1nc(OCc2ccccc2)c2nc[nH]c2n1 | 9.75%
COc1ccc(Nc2nccc(-c3ccc(C#N)cc3)n2)cc1 | 21.1%
Cc1cnc(NC(=O)Nc2cc(Br)c(C)cc2OC[C@@H]2CNCCO2)cn1 | 41.5%

Block 2
Target: Calcium/calmodulin-dependent protein kinase type II subunit alpha (CAMK2A, Homo sapiens, UniProt Q9UQM7)
Sequence of UniProt Q9UQM7 (whole entry, looked up): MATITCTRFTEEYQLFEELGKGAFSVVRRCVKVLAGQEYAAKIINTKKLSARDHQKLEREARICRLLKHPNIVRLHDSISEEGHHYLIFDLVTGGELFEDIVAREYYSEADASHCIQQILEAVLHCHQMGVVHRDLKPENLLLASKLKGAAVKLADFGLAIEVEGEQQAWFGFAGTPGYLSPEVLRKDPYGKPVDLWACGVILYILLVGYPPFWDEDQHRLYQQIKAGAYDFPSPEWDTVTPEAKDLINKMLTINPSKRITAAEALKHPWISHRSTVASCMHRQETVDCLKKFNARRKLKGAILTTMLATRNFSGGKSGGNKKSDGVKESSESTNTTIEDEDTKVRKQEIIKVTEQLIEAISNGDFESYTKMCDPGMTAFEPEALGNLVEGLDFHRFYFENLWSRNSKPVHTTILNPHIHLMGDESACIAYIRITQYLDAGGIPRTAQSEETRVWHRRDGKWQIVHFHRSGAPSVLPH
Read-out: enzyme activity
Mode: inhibitor
Concentration: 10 µM
SMILES | inhibition
CC#CC(=O)N1CCC[C@H]1c1nc(-c2ccc(C(=O)Nc3ccccn3)cc2)c2c(N)nccn12 | 10%
COc1cc(OC)c2c(=O)cc(-c3ccc(O)c(O)c3)oc2c1 | -39%
C=C1CC[C@H]2O[C@]2(C)CC[C@@H]2[C@@H]1CC2(C)C | -2%
COc1ccc(/C=C/c2cc(O)cc(O[C@@H]3O[C@H](CO)[C@@H](O)[C@H](O)[C@H]3O)c2)cc1 | 31%
CC(=O)NCCCCNCCCN | -94%
CCN(CC)CCNC(=O)c1ccc(NC(C)=O)cc1 | 3%

Block 3
Cell line: Huh-7
Concentration: 10 µM
Time: 24 h
Compound | viability [%]
CCCC(CCC)C(=O)O | 105
C[N+](C)(C)CCO | 101
NCCCCCC(=O)O | 101
CO[C@@]1(NC(=O)C(C(=O)O)c2ccc(O)cc2)C(=O)N2C(C(=O)O)=C(CSc3nnnn3C)CO[C@@H]21 (some centres unmarked) | 97.7
CO/N=C(\C(=O)N[C@@H]1C(=O)N2C(C(=O)OC(C)OC(C)=O)=C(COC(N)=O)CS[C@H]12)c1ccco1 (some centres unmarked) | 96.9
COC(=O)Nc1nc2ccc(C(=O)c3ccccc3)cc2[nH]1 | 64.1

Block 4
Species: mouse
Matrix: microsomes or S9
Concentration: 2 µM
Time: 0.5 h
SMILES | remaining compound [%]
Cc1ccc(S(=O)(=O)N2CCN(c3ncnc4c3nnn4Cc3ccccc3)CC2)cc1 | 1.41
Nc1cc(O)nc2nnc(SCc3nnnn3-c3ccc(Cl)c(Cl)c3)n12 | 89.8
COC(=O)c1ccc(Cn2cc(-c3nc(-c4cnccn4)no3)ccc2=O)o1 | 46
CC(C)[C@@H](Oc1ccc(NC(=O)C2CC=NN2C(=O)C[C@H](N)Cc2cc(F)c(F)cc2F)cc1)C(=O)O (some centres unmarked) | 85.4
O=C(c1cccnc1Cl)N1CCN(c2nc3nccc(-c4cccs4)n3n2)CC1 | 34.3
CCn1nc(C2CCCCN2C(=O)NC(C)C)c2c1CCOC2 (centres unmarked) | 56.4
COc1cc(=O)[nH]cc1C(=O)N1CCCC(N2CCOCC2)C1 (centres unmarked) | 80.3

Block 5
Compound: Cc1cc(C)c(-n2ccn3nc(-c4cccnc4)cc23)cc1NC(=O)c1cc(C#N)cc(S(F)(F)(F)(F)F)c1
Technique: competition with immobilised ligand
Concentration: 0.1 µM
target | test | remaining binding
Tyrosine-protein kinase Blk (BLK, Homo sapiens, UniProt P51451) | cell-free assay | 100%
Mitogen-activated protein kinase kinase kinase 15 (MAP3K15, Homo sapiens, UniProt Q6ZN16) | cell-free assay | 48.8%
Serine/threonine-protein kinase WNK4 (WNK4, Homo sapiens, UniProt Q96J92) | cell-free assay | 100%
Rhodopsin kinase GRK7 (GRK7, Homo sapiens, UniProt Q8WTQ7) | cell-free assay | 65.6%
Serine/threonine-protein kinase haspin (HASPIN, Homo sapiens, UniProt Q8TF76) | cell-free assay | 64%
Cyclin-dependent kinase 3 (CDK3, Homo sapiens, UniProt Q00526) | cell-free assay | 92.4%
Interferon-induced, double-stranded RNA-activated protein kinase (EIF2AK2, Homo sapiens, UniProt P19525) | cell-free assay | 96.4%
Epithelial discoidin domain-containing receptor 1 (DDR1, Homo sapiens, UniProt Q08345) | cell-free assay | 0.1%
Receptor-type tyrosine-protein kinase FLT3 (FLT3, Homo sapiens, UniProt P36888, K663Q) | cell-free assay | 100%
Tyrosine-protein kinase TXK (TXK, Homo sapiens, UniProt P42681) | binding | 98.3%
Serine/threonine-protein kinase Nek5 (NEK5, Homo sapiens, UniProt Q6P3R8) | cell-free assay | 87.8%
Myosin-IIIb (MYO3B, Homo sapiens, UniProt Q8WXR4) | binding | 82.4%
Testis-specific serine/threonine-protein kinase 1 (TSSK1B, Homo sapiens, UniProt Q9BXA7) | cell-free assay | 100%
Ribosomal protein S6 kinase alpha-2, C-terminal kinase domain (RPS6KA2, Homo sapiens, UniProt Q15349) | cell-free assay | 65.1%
Eukaryotic translation initiation factor 2-alpha kinase 1 (EIF2AK1, Homo sapiens, UniProt Q9BQI3) | cell-free assay | 100%
Ankyrin repeat and protein kinase domain-containing protein 1 (ANKK1, Homo sapiens, UniProt Q8NFD2) | cell-free assay | 84.5%
Mitogen-activated protein kinase 12 (MAPK12, Homo sapiens, UniProt P53778) | cell-free assay | 61.2%
Insulin receptor (INSR, Homo sapiens, UniProt P06213) | cell-free assay | 69%
Casein kinase I isoform gamma-3 (CSNK1G3, Homo sapiens, UniProt Q9Y6M4) | cell-free assay | 93.7%
Aurora kinase B (AURKB, Homo sapiens, UniProt Q96GD4) | cell-free assay | 98.8%
Serine/threonine-protein kinase 35 (STK35, Homo sapiens, UniProt Q8TDR2) | cell-free assay | 92%
Insulin-like growth factor 1 receptor (IGF1R, Homo sapiens, UniProt P08069) | cell-free assay | 84.7%
Proto-oncogene tyrosine-protein kinase Src (SRC, Homo sapiens, UniProt P12931) | cell-free assay | 92.6%
Tyrosine-protein kinase ABL1, phosphorylated (ABL1, Homo sapiens, UniProt P00519, H396P) | cell-free assay | 87.5%

Block 6
SMILES: CO[C@@H]1[C@H](N(C)C(=O)c2ccccc2)C[C@H]2O[C@]1(C)n1c3ccccc3c3c4c(c5c6ccccc6n2c5c31)C(=O)NC4
Read-out: enzyme activity
Mode: inhibitor
Concentration: 1 µM
target | inhibition [%]
Serine/threonine-protein kinase RIO2 (RIOK2, Homo sapiens, UniProt Q9BVS4) | 11
Phosphatidylinositol 3-kinase catalytic subunit type 3 (PIK3C3, Homo sapiens, UniProt Q8NEB9) | 10
Serine/threonine-protein kinase MAK (MAK, Homo sapiens, UniProt P20794) | 4
Mitogen-activated protein kinase kinase kinase kinase 4 (MAP4K4, Homo sapiens, UniProt O95819) | 50

Further values, each from its own experiment
SMILES | system | conditions | scale | measurement | value
CC(=O)N[C@@H](Cc1c[nH]c2ccccc12)C(=O)N[C@@H](CCC(=O)C=[N+]=[N-])C(=O)OC(C)C | C57BL/6 CES1-/- mice, MC-38 tumour | dose not given, day 15 after inoculation, added: anti-PD-1 | reference: initial | body weight | 96.8% and 96.2% and 99.6% and 98.2% and 96.1% and 95.2% and 95.9%

For quick reference, copied from above (block 5):
target | test | remaining binding
Serine/threonine-protein kinase haspin (HASPIN, Homo sapiens, UniProt Q8TF76) | cell-free assay | 64%
Testis-specific serine/threonine-protein kinase 1 (TSSK1B, Homo sapiens, UniProt Q9BXA7) | cell-free assay | 100%
Insulin receptor (INSR, Homo sapiens, UniProt P06213) | cell-free assay | 69%
Ribosomal protein S6 kinase alpha-2, C-terminal kinase domain (RPS6KA2, Homo sapiens, UniProt Q15349) | cell-free assay | 65.1%
Eukaryotic translation initiation factor 2-alpha kinase 1 (EIF2AK1, Homo sapiens, UniProt Q9BQI3) | cell-free assay | 100%
Myosin-IIIb (MYO3B, Homo sapiens, UniProt Q8WXR4) | binding | 82.4%
Ankyrin repeat and protein kinase domain-containing protein 1 (ANKK1, Homo sapiens, UniProt Q8NFD2) | cell-free assay | 84.5%
Tyrosine-protein kinase TXK (TXK, Homo sapiens, UniProt P42681) | binding | 98.3%
Tyrosine-protein kinase ABL1, phosphorylated (ABL1, Homo sapiens, UniProt P00519, H396P) | cell-free assay | 87.5%
